Measured values collected from several papers.
Protocols differ between the studies behind these lines. Numbers after ± are the reported error.
Organism: Enterococcus faecalis

With `CCCCCCn1cc[n+](CCCCOc2cc(OCCCC[n+]3ccn(CCCCCC)c3)cc(OCCCC[n+]3ccn(CCCCCC)c3)c2)c1.[Br-].[Br-].[Br-]` the MIC was 32 µM (OG1RF).
`CCCCC=CC(=O)NC(Cc1cc(F)cc(F)c1)C(=O)NC1COC(=O)C2CCCN2C(=O)C(C)NC(=O)C(C)N(C)C(=O)C2CCCN2C1=O` (stereo not drawn) has an MIC of 12 ng/mL (microbial growth, broth dilution).
For `CCCCCCCC[N+](C)(C)CCCCCCCCCCOc1cc(OCCCCCCCCCC[N+](C)(C)CCCCCCCC)cc(OCCCCCCCCCC[N+](C)(C)CCCCCCCC)c1.[Br-].[Br-].[Br-]`, the MIC was 16 µM (OG1RF).
With `c1ccc2c(Cc3c[nH]c4ccccc34)c[nH]c2c1` the IC50 was > 50 µM (microbial growth, absorbance).
For `CCCNC(=O)[C@H](Cc1ccc(O)cc1)NC(=O)[C@@H]1Cc2ccc(O)c(c2)-c2cc(ccc2O)[C@@H](NC(=O)[C@@H](NC(=O)[C@H](CC(N)=O)NC(=O)[C@@H](Cc2ccc(O)cc2)NC(=O)[C@@H](CC(C)C)NC)c2ccc(O)cc2)C(=O)N1`, the IC50 was > 40 µM (bacterial growth).
`c1ccc2c(Cc3c(-c4c[nH]c5ccccc45)[nH]c4ccccc34)c[nH]c2c1` has an IC50 of > 50 µM (microbial growth, absorbance).
For `COc1cccc(OC)c1C(=O)N[C@@H]1C(=O)N2[C@@H]1SC(C)(C)[C@@H]2C(=O)O`, the MIC was 64 µM (microbial growth, broth dilution; 29212).
`O=C1Nc2ccccc2C1(c1c[nH]c2ccccc12)c1c[nH]c2ccccc12` gave an IC50 of > 50 µM (microbial growth, absorbance).
The MIC of `CN[C@H](CC(C)C)C(=O)N[C@H]1C(=O)N[C@@H](CC(N)=O)C(=O)N[C@H]2C(=O)N[C@H]3C(=O)N[C@H](C(=O)N[C@H](C(=O)O)c4cc(O)cc(O)c4-c4cc3ccc4O)[C@H](O)c3ccc(c(Cl)c3)Oc3cc2cc(c3O[C@@H]2O[C@H](CO)[C@@H](O)[C@H](O)[C@H]2O[C@H]2C[C@](C)(NCc3ccc(-c4ccc(Cl)cc4)cc3)[C@H](O)[C@H](C)O2)Oc2ccc(cc2Cl)[C@H]1O` is reported as 5000 ng/mL (BM4166, VanA vancomycin-resistant).
For `CCCCCCCCCC[N+](C)(C)CCCCCCCCCCOc1cc(OCCCCCCCCCC[N+](C)(C)CCCCCCCCCC)cc(OCCCCCCCCCC[N+](C)(C)CCCCCCCCCC)c1.[Br-].[Br-].[Br-]`, the MIC was 32 µM (OG1RF).
With `CC(c1c[nH]c2ccccc12)c1c[nH]c2ccccc12` the IC50 was > 50 µM (microbial growth, absorbance).
For `CCCNC(=O)[C@@H]1Cc2ccc(O)c(c2)-c2cc(ccc2O)C[C@H](NC(=O)[C@H](NC(=O)[C@H](NC(=O)[C@H](CC(N)=O)NC(=O)[C@@H](Cc2ccc(O)cc2)NC(=O)[C@@H](CC(C)C)NC)c2ccccc2)c2ccc(O)cc2)C(=O)N1`, the IC50 was 21 ± 3 µM (bacterial growth).
With `CCCC/C=C/C(=O)N[C@@H](Cc1cc(F)cc(F)c1)C(=O)N[C@@H]1C(=O)N2CCC[C@H]2C(=O)N2CCCC[C@H]2C(=O)N[C@@H](C)C(=O)N2CCC[C@H]2C(=O)O[C@H]1C` the MIC was < 0.02 ng/mL (microbial growth, broth dilution).
The IC50 of `CC(C)CC(c1c[nH]c2ccccc12)c1c[nH]c2ccccc12` is reported as > 50 µM (microbial growth, absorbance).
`CCCCCCCCCC[N+](C)(C)CCCCOc1cc(OCCCC[N+](C)(C)CCCCCCCCCC)cc(OCCCC[N+](C)(C)CCCCCCCCCC)c1.[Br-].[Br-].[Br-]` gave an MIC of 1 µM (OG1RF).
